# Measurements from different studies.
# Each numbered part is a random draw from the data of one study; scales do not carry over between parts. Changes are numbered by the printed parent chain.

# Sample 1 — cell line: yeast with cyclin E2-Cln2 chimera; observed: cell growth; action: binder; technique: competitive growth deep sequencing; molecule type: peptide; concentration: concentration not given; setting: peptide tiling library; reading: direction not given
Molecule,growth enrichment score
PKRAKRKLYTSEISSP,0.713
MNQELLSVGSKRRRTG,1.33
IPMIAKNLMCELDE,0.897
PKNAKRNLSSEFAN,0.835
HPESPPRKRLKSKGSD,0.542
ASVLSKPIFCFVKD,-0.255
IFNKPECGRVQRAIFQ,0.437
TLPYDLACTGGDFVLF,-0.00438
GTPKRCLDLSNLSSGE,0.0952
TQERKQIHCLSEDELS,-0.0164

# Sample 2 — technique: protein binding microarray; molecule type: double-stranded DNA, one strand shown; matrix: in vitro; concentration: not given; reference: not given; reading: higher = stronger binding
# Target: Histone acetyltransferase KAT6A, winged helix 1, GST fusion (KAT6A, Homo sapiens, UniProt Q92794, residues 1-85)
# Setting: 8-mer, flanks averaged, mean of 2 arrays, mostly near background
# Target sequence (chain): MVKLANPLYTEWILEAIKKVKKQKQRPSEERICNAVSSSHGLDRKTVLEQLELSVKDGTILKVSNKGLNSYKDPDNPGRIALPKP
Sequence,E-score
AACTTATT,-0.171
ATCCTTGC,-0.0924
GGAAGTTA,0.0534
ACCAAACA,-0.0478
ACCGACCG,0.252
GCGAAAGC,0.204
CTTTGTGA,-0.174
ACCGTTTA,0.185
ACGAAAGT,-0.121
ACATATAA,-0.12
ATCCAGCG,0.177
CTCTCGCA,-0.0929
ACGTATAT,-0.0119
AGCCGATA,0.0368
CTTCAACC,-0.022
CCTTACCC,0.00251
TCACCACA,-0.173

# Sample 3 — target: CEP164, C-terminal peptide (human); technique: DHFR complementation, deep sequencing; matrix: yeast; reference: wild type; reading: higher = weaker binding
# Setting: single substitutions, model-inferred values
# Parent: PDZK1, PDZ domain 2 (human); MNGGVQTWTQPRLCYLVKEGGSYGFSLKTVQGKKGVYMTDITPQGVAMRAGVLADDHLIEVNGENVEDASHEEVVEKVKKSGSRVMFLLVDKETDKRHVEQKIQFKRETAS; partner HNRVKVYRF
Variant,binding free energy change [kcal/mol]
L53W,0.119
S81T,0.462
V75I,0.166
K80I,0.652
G32N,0.136
S81R,0.749
L53F,0.0722
R107W,-0.13
C14F,0.69
D55I,0.336

# Single results of other studies
Molecule,target,test,test system,setting,scale,endpoint,result
"PhoQ, residues 284 288 289 292 302 303 TLMATV","PhoP, residues 12 14 15 18 19 NYFTV (Escherichia coli, UniProt P23836)","Sort-seq, item: YFP reporter",E. coli,"PhoQ-PhoP variant library, with: 10 µM Mg2+","reference: high Mg2+ state, higher = stronger signaling",fold induction,12.3

# Some of these lines once more (sample 2):
Sequence,E-score
ACGAAAGT,-0.121
ACATATAA,-0.12
ATCCAGCG,0.177
